Measurements pooled from the literature.
A part holds a random share of what one study measured.

Set 1
Target: Ras GTPase-activating protein-binding protein 1, C-terminal RGG region (G3BP1, Homo sapiens, UniProt Q13283)
Chain of UniProt Q13283 (whole entry, looked up): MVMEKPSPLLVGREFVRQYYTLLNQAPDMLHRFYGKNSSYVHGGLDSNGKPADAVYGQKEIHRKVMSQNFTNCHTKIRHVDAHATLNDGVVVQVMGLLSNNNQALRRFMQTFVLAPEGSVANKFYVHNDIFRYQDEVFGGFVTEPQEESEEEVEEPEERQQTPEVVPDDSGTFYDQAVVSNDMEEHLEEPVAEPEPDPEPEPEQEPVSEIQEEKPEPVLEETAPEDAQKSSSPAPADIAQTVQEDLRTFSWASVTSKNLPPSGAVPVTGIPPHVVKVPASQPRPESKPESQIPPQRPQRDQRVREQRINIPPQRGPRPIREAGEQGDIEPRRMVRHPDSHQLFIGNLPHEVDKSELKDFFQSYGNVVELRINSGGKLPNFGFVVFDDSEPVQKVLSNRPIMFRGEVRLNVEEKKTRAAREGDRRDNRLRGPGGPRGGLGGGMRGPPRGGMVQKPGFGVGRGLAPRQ
Method: RNA Bind-n-Seq
Form: RNA
Matrix: in vitro
Concentration: 1 µM
Setting: whole 134-nt RNA, ends assumed
Added: 150 mM KCl
Baseline: input library
Reading: higher = stronger binding
Endpoint: log2 enrichment
Oligonucleotide = GGGAGUUCUACAGUCCGACGAUCGCAGGAAGUAAAAACAAAUGGAAAUGCUUCGGAUAGUGGCAGGGGUGGGGGUUGCUAAGGAAAGGGUGGGACGGGAGUGGGUAAAGAGUUUGGAAUUCUCGGGUGUCAAGG; result = 1.82
Oligonucleotide = GGGAGUUCUACAGUCCGACGAUCGCAGGAAGUAAAAACAAAUGGAAGUGCUUCGGAUAGUGGCAGGGGUGGGGGUUGCUAAGGAAAGGGUGGGAUGGGAGUGGGUAAAGAGUUUGGAAUUCUCGGGUGUCAAGG; result = 2.53
Oligonucleotide = GGGAGUUCUACAGUCCGACGAUCUGCGAUAUGAACGUUCACAAGCAAUGCGUCAUCAAUGUCCCCAGCCUCUGCGGAAUGGAUCACACUGAGAAGAGGGGGCGGAUUUACCUAUGGAAUUCUCGGGUGUCAAGG; result = -1.2
Oligonucleotide = GGGAGUUCUACAGUCCGACGAUCGUCCUGUGCUACACAUCGUAUGUACCGAAUCGGAAAAAGGUUUUUUUGGAAAAAAAGGAAAGUAUUAUGUUACGCCGUUCGGAUCUGCACUGGAAUUCUCGGGUGUCAAGG; result = -2.15

Set 2
Target: Interferon regulatory factor 5, full length, phosphomimetic (IRF5, Homo sapiens, UniProt Q13568-2, residues 1-514, S451D/S453D/S456D/S462D)
Method: protein-binding microarray
Form: double-stranded DNA, one strand shown
Matrix: in vitro
Concentration: 940 nM top
Setting: 60-bp whole probe
Added: salmon DNA 0.4 mg/ml
Baseline: random background probes
Reading: higher = stronger binding
Endpoint: fitted relative affinity
All sequences stand within: GCCTAGCAC … GTCTTGATTCGCTTGACGCTGCTG
Oligonucleotide = ATTGCTTCCTCTTTCACTGGGTGCTAG; result = 1.54 z-score
Oligonucleotide = TTTGGTTTCGGGTATCGGTTAGTGCTA; result = 13.8 z-score
Oligonucleotide = TTAGATTTCGGGACTGGATTCGTGCTA; result = 0.674 z-score
Oligonucleotide = TGTGGCTTAGTTTGTCAAAAAGTGCTA; result = -0.221 z-score
Oligonucleotide = GACGATTTCAGTTTCGAGTCGTGCTAG; result = 7.16 z-score
Oligonucleotide = GACGGTATCGGGTATCGGGGCGTGCTA; result = 5.9 z-score
Oligonucleotide = TATGTTCACTATTTAAGAACGTGCTAG; result = 0.0377 z-score
Oligonucleotide = GACGGACTGGGTTTTGGGACGTGCTAG; result = -0.146 z-score
Oligonucleotide = GACGATATCAGTCTCGAAACGTGCTAG; result = 1.17 z-score
Oligonucleotide = GACGGTTTCCTTTTCCTGAAGTGCTAG; result = 1.96 z-score

Set 3
Target: Histone acetyltransferase KAT6A, winged helix 1, GST fusion (KAT6A, Homo sapiens, UniProt Q92794, residues 1-85)
Method: protein binding microarray
Form: double-stranded DNA, one strand shown
Matrix: in vitro
Concentration: not given
Setting: 8-mer, flanks averaged, mean of 2 arrays, mostly near background
Baseline: not given
Reading: higher = stronger binding
Endpoint: E-score
Target sequence (chain): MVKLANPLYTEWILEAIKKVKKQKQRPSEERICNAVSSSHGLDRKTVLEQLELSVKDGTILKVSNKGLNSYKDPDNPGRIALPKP
Oligonucleotide = CCAGAAAC; result = -0.135
Oligonucleotide = AATTACGT; result = -0.205
Oligonucleotide = CATATCGA; result = -0.0508
Oligonucleotide = AGCCCTCG; result = -0.0681
Oligonucleotide = TATCCTGA; result = -0.154
Oligonucleotide = GTATAGCA; result = -0.0881

Other studies, line by line
Substance = PhoQ, residues 284 288 289 292 302 303 ASVMEA; target = PhoP, residues 12 14 15 18 19 LQHIR (Escherichia coli, UniProt P23836); assay = Sort-seq, item: YFP reporter; test system = E. coli; conditions = PhoQ-PhoP variant library, added: 10 µM Mg2+; how to read = baseline: high Mg2+ state, higher = stronger signaling; endpoint = fold induction; result = 0.587

A few entries again (set 3):
Oligonucleotide = GTATAGCA; result = -0.0881
Oligonucleotide = TATCCTGA; result = -0.154
